Results from different studies.
± marks the error that the study gave.

COc1ccc(CNc2nc(N3CCC[C@H]3CO)ncc2C(=O)NN)cc1Cl — revertant count (Salmonella typhimurium; TA1535; 500 µg/plate, 48 h, added: rat liver S9): 53 ± 3
CC(C)=CCC/C(C)=C/CNCCOC1C2CC3CC(C2)CC1C3 (stereo not drawn) — selectivity index (Trypanosoma brucei; relative to: CC50 HEK293T over IC50 T. brucei): 4.9
Cc1cc(/C=C/C#N)cc(C)c1-n1cnc2cnc(Nc3ccc(C#N)cc3)nc21 — therapeutic index (HIV-1 wild type; relative to: CC50 over EC50): > 25000
COc1cc(O)c2c(c1)/C=C/C[C@H](O)[C@H](O)C(=O)/C=C\C[C@H](C)OC2=O — CC50 (SARS-CoV-2 USA-WA1/2020; alamarBlue; Vero E6, infected; 24 h post infection): 18 µM
CC1CCC(C(C)C)C(OCC(=O)NC(C)c2ccc(-n3cncn3)cc2)C1 (stereo not drawn) — EC50 (Trypanosoma brucei; cell viability, flow cytometry, PI; bloodstream form; 24 h): 17.1 ± 4.4 µM
CC(C)=CCNCCOC1C2CC3CC(C2)CC1C3 (stereo not drawn) — selectivity index (Trypanosoma brucei; relative to: CC50 HEK293T over IC50 T. brucei): 6
CCC(=O)N(C)c1ccc(Cl)c(Cl)c1 — revertants (Salmonella typhimurium; Ames test; TA98; 1.00 mg/plate, with rat liver S9): 10 ± 2.6 revertants/plate
O=C(O)C(Cc1ccccc1)N1CSC(=S)N(CCN(CCN2CN(C(Cc3ccccc3)C(=O)O)CSC2=S)CCN2CN(C(Cc3ccccc3)C(=O)O)CSC2=S)C1 (stereo not drawn) — selectivity index (Leishmania tropica; promastigote; relative to: haemolysis CC50 over IC50): 0.19
CC(=NCc1ccccc1)c1c(C)cc(=O)n(O)c1O — selectivity index (hepatitis B virus; viral replication, qPCR; HepDES19 genotype D; relative to: CC50 over EC50): 0.6
CCS(=O)(=O)N1CC(CC#N)(n2cc(-c3ncnc4[nH]ccc34)cn2)C1 — CC50 (SARS-CoV-2 USA-WA1/2020; alamarBlue; Vero E6, infected; 24 h post infection): > 20 µM
CC(C)=CCC/C(C)=C/CC/C(C)=C/CNCCOC1C2CC3CC(C2)CC1C3 (stereo not drawn) — selectivity index (Trypanosoma brucei; relative to: CC50 HEK293T over IC50 T. brucei): 15
COc1ccc(CNc2nc(N3CCC[C@H]3CO)ncc2C(=O)NNC(=O)c2cnc(N3CCC[C@H]3CO)nc2NCc2ccc(OC)c(Cl)c2)cc1Cl — revertant count (Salmonella typhimurium; TA98; 500 µg/plate, 48 h, added: rat liver S9): 30 ± 3

Excerpt of the above:
Cc1cc(/C=C/C#N)cc(C)c1-n1cnc2cnc(Nc3ccc(C#N)cc3)nc21 — therapeutic index (HIV-1 wild type; relative to: CC50 over EC50): > 25000
COc1cc(O)c2c(c1)/C=C/C[C@H](O)[C@H](O)C(=O)/C=C\C[C@H](C)OC2=O — CC50 (SARS-CoV-2 USA-WA1/2020; alamarBlue; Vero E6, infected; 24 h post infection): 18 µM
